Published values pooled from the literature.
Protocols differ between the studies behind these lines. ± marks the error that the study gave.
UniProt Q8BH82, sequence (whole entry, looked up): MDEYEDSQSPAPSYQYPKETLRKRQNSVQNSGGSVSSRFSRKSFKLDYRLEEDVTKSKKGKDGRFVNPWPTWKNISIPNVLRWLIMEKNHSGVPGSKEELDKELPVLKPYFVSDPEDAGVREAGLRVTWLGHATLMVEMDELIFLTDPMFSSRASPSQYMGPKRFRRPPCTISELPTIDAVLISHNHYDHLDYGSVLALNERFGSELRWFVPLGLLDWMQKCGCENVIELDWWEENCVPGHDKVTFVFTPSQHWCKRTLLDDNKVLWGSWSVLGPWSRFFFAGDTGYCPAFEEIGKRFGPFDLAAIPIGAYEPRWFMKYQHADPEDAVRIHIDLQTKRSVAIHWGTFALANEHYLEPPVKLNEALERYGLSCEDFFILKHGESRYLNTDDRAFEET
UniProt P29317, sequence (whole entry, looked up): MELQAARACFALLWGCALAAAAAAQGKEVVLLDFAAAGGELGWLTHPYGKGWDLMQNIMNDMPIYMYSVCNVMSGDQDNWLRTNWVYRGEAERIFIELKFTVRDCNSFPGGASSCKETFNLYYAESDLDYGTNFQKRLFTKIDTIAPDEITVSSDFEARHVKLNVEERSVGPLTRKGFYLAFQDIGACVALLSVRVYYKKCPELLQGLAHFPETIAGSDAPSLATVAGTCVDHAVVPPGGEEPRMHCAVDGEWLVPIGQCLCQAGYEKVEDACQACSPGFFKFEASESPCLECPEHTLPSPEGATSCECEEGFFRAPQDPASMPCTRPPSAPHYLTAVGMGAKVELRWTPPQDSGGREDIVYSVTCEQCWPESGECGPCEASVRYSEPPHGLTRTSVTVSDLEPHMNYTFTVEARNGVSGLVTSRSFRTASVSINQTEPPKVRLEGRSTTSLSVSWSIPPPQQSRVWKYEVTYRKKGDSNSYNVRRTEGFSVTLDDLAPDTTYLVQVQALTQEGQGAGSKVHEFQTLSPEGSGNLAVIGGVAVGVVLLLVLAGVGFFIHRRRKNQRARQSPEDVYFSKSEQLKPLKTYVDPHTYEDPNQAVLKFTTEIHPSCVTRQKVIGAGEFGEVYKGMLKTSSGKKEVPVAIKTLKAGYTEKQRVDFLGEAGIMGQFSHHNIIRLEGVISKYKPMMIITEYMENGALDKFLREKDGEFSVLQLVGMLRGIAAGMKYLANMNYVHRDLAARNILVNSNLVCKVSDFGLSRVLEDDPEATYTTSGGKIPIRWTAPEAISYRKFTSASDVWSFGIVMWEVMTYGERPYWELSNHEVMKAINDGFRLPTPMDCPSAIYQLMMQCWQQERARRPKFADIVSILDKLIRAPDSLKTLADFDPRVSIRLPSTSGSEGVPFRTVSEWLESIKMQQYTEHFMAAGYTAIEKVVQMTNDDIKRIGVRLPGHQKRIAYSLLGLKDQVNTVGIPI
UniProt P16050, sequence (whole entry, looked up): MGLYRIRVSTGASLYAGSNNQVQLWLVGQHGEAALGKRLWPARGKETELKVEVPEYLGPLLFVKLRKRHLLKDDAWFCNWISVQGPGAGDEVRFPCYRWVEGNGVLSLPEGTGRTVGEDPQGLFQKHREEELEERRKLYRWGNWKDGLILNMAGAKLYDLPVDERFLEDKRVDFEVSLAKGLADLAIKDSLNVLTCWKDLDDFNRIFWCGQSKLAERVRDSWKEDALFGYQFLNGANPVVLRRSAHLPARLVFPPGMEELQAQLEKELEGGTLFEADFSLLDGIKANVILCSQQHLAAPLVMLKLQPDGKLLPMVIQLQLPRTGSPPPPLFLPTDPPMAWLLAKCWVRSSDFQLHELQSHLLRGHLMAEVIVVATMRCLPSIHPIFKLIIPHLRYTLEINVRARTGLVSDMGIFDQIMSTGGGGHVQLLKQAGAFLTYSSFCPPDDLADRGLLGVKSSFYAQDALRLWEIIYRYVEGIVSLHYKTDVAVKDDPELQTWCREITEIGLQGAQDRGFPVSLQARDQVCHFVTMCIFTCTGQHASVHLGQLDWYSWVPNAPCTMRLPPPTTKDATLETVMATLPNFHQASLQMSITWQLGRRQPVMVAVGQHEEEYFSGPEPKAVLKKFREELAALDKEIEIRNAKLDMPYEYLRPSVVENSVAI
UniProt P11362, sequence (whole entry, looked up): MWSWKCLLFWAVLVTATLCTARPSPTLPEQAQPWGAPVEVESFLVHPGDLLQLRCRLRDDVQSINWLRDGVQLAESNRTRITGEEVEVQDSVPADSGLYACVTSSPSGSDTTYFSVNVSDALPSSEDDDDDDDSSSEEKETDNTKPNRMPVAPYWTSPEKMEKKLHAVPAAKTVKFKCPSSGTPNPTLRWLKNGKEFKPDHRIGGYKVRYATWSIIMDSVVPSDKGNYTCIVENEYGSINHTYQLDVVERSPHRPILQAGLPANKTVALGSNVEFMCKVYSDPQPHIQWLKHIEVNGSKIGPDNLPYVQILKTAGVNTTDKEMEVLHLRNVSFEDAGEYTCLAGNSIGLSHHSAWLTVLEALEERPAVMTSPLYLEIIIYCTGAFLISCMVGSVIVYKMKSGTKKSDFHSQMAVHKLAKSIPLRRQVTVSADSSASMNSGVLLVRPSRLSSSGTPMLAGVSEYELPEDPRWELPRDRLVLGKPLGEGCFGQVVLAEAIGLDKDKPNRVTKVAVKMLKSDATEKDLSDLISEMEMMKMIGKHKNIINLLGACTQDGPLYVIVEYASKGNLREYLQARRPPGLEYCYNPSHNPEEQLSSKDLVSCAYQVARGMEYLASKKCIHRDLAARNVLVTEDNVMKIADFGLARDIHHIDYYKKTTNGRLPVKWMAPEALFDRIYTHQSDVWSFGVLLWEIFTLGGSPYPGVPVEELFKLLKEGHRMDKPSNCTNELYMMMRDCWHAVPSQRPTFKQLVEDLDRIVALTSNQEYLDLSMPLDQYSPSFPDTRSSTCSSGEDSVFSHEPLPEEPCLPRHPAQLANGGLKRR
UniProt P48029, sequence (whole entry, unmodified, looked up): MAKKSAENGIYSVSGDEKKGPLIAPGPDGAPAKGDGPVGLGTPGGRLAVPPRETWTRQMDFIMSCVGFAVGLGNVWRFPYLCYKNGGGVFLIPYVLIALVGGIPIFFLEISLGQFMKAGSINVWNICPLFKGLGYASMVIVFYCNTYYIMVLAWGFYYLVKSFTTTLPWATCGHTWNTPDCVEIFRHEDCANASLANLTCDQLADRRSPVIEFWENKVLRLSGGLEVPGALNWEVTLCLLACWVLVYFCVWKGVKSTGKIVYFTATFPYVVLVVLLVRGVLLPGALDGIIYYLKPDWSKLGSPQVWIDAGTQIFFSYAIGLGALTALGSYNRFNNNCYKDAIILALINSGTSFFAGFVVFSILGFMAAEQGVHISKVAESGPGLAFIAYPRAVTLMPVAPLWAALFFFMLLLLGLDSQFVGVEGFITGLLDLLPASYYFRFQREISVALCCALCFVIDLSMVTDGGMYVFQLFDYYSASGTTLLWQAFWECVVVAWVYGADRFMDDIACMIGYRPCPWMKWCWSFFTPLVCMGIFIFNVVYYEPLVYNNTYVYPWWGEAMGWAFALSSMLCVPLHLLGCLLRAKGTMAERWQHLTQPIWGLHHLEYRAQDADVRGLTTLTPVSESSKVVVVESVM
UniProt Q08638, sequence (whole entry, looked up): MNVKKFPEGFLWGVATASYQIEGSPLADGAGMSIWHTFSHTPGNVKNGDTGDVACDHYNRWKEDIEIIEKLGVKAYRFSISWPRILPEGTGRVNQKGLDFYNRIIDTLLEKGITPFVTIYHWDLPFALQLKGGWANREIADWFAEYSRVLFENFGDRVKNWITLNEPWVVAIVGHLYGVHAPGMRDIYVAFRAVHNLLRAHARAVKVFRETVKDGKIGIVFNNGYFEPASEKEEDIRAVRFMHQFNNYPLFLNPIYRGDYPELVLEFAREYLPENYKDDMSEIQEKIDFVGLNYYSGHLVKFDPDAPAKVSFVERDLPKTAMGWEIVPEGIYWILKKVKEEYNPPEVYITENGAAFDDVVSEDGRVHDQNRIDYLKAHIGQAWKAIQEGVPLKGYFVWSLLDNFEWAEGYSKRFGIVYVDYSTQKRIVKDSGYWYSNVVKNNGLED

Compound | tested on | test | test system | setting | measurement | value
CCCCCCCCN1[C@H](CCC)[C@H](O)[C@@H](O)[C@H](O)[C@H]1CO | bglA (Thermotoga maritima, UniProt Q08638) | competitive inhibitor |  | added: p-nitrophenyl glucopyranoside | Ki | > 2000 µM
N=C(N)NCCC[C@@H]1NC(=O)[C@H](CCCCNC(=O)CNC(=O)CNC(=O)CNC(=O)CC[C@H](NC(=O)CNC(=O)CNC(=O)CNC(=O)CC[C@H](NC(=O)CN2CCN(CC(=O)O)CCN(CC(=O)O)CCN(CC(=O)O)CC2)C(=O)NCC(=O)NCC(=O)NCC(=O)N[C@@H](CCC(=O)NCC(=O)NCC(=O)NCC(=O)NCCCC[C@@H]2NC(=O)[C@@H](Cc3ccccc3)NC(=O)[C@H](CC(=O)O)NC(=O)CNC(=O)[C@H](CCCNC(=N)N)NC2=O)C(=O)NCC(=O)NCC(=O)NCC(=O)NCCCC[C@@H]2NC(=O)[C@@H](Cc3ccccc3)NC(=O)[C@H](CC(=O)O)NC(=O)CNC(=O)[C@H](CCCNC(=N)N)NC2=O)C(=O)NCC(=O)NCC(=O)NCC(=O)NCCCC[C@@H]2NC(=O)[C@@H](Cc3ccccc3)NC(=O)[C@H](CC(=O)O)NC(=O)CNC(=O)[C@H](CCCNC(=N)N)NC2=O)NC(=O)[C@@H](Cc2ccccc2)NC(=O)[C@H](CC(=O)O)NC(=O)CNC1=O [indium-111 labelled] |  |  | female athymic nu/nu mice, blood | intravenous, 72 h | tissue uptake | 0.03 ± 0.01 %ID/g
Cc1cc(C)c2sc(NC(=O)C3CCN(S(=O)(=O)c4ccc(F)cc4)CC3)nc2c1 | Napepld (Mus musculus, UniProt Q8BH82) | flame-NAPE competition |  | LEI-401 series, added: vehicle pretreatment | EC50 | 0.54 µM
CN1CCN(CC(=O)N2N=C3/C(=C/c4ccccc4)CCCC3C2c2ccccc2)CC1 (mixture of isomers) | ALOX15 (Homo sapiens, UniProt P16050) | enzyme activity, activator |  | added: arachidonic acid 50 µM | AC50 | 3.8 µM
CC(C)=CCCC(C)=CCc1cc(-c2coc3cc(OC4OC(C(=O)O)C(O)C(O)C4O)ccc3c2=O)ccc1O (stereo not shown) |  | glucuronidation, substrate | pooled human liver microsomes |  | substrate inhibition Ki | 18.1 ± 4.51 µM
CCC(=O)Nc1cccc(CN2C(=O)N(c3c(Cl)c(OC)cc(OC)c3Cl)Cc3cnc(NCCCCN(CC)CC)nc32)c1 | FGFR1 (Homo sapiens, UniProt P11362) | kinase activity, inhibitor, Z'-LYTE |  | added: DTT 6 mM | DTT effect on IC50 | no effect
Cc1ccc(NC(=O)c2ccc(-c3cc(O)ccc3C)c(C)c2)cc1F | EPHA2 (Homo sapiens, UniProt P29317) |  |  |  | Ki | > 0.25 µM
O=C(NC1(Cc2ccccc2)CC1)c1cc(N2CCCCC2)ccn1 | SLC6A8 (Homo sapiens, UniProt P48029, P544L) | surface trafficking, PathHunter, refers to: SLC6A8 P544L | U-2 OS | 24 h | EC50 | 2 µM
NC[C@@H]1O[C@H](O[C@H]2[C@@H](O)[C@H](O[C@@H]3[C@@H](O)[C@H](N)C[C@H](N)[C@H]3O[C@H]3O[C@H](CN)[C@@H](O)[C@H](O)[C@H]3N)O[C@@H]2CO)[C@H](N)[C@@H](O)[C@@H]1O | poly(dA)•2poly(dT) | DNA binding, fluorescent intercalator displacement |  | pH 6.8, added: thiazole orange 1.25 µM | AC50 | 3 ± 0.6 µM
OCCn1ncc2c(Nc3ccc(F)cc3)ncnc21 | Plasmodium falciparum | parasite growth | NF54 | 72 h | IC50 | 4.5 ± 1.5 µM

For quick reference, copied from above:
Compound | tested on | test | test system | setting | measurement | value
O=C(NC1(Cc2ccccc2)CC1)c1cc(N2CCCCC2)ccn1 | SLC6A8 (Homo sapiens, UniProt P48029, P544L) | surface trafficking, PathHunter, refers to: SLC6A8 P544L | U-2 OS | 24 h | EC50 | 2 µM
